Results collected from several papers.
Compare with care: the assays were run in different laboratories. Several values in a cell are separate wells, animals, samples, runs or records. Numbers after ± are the reported error.
UniProt Q14315, sequence (whole entry, looked up): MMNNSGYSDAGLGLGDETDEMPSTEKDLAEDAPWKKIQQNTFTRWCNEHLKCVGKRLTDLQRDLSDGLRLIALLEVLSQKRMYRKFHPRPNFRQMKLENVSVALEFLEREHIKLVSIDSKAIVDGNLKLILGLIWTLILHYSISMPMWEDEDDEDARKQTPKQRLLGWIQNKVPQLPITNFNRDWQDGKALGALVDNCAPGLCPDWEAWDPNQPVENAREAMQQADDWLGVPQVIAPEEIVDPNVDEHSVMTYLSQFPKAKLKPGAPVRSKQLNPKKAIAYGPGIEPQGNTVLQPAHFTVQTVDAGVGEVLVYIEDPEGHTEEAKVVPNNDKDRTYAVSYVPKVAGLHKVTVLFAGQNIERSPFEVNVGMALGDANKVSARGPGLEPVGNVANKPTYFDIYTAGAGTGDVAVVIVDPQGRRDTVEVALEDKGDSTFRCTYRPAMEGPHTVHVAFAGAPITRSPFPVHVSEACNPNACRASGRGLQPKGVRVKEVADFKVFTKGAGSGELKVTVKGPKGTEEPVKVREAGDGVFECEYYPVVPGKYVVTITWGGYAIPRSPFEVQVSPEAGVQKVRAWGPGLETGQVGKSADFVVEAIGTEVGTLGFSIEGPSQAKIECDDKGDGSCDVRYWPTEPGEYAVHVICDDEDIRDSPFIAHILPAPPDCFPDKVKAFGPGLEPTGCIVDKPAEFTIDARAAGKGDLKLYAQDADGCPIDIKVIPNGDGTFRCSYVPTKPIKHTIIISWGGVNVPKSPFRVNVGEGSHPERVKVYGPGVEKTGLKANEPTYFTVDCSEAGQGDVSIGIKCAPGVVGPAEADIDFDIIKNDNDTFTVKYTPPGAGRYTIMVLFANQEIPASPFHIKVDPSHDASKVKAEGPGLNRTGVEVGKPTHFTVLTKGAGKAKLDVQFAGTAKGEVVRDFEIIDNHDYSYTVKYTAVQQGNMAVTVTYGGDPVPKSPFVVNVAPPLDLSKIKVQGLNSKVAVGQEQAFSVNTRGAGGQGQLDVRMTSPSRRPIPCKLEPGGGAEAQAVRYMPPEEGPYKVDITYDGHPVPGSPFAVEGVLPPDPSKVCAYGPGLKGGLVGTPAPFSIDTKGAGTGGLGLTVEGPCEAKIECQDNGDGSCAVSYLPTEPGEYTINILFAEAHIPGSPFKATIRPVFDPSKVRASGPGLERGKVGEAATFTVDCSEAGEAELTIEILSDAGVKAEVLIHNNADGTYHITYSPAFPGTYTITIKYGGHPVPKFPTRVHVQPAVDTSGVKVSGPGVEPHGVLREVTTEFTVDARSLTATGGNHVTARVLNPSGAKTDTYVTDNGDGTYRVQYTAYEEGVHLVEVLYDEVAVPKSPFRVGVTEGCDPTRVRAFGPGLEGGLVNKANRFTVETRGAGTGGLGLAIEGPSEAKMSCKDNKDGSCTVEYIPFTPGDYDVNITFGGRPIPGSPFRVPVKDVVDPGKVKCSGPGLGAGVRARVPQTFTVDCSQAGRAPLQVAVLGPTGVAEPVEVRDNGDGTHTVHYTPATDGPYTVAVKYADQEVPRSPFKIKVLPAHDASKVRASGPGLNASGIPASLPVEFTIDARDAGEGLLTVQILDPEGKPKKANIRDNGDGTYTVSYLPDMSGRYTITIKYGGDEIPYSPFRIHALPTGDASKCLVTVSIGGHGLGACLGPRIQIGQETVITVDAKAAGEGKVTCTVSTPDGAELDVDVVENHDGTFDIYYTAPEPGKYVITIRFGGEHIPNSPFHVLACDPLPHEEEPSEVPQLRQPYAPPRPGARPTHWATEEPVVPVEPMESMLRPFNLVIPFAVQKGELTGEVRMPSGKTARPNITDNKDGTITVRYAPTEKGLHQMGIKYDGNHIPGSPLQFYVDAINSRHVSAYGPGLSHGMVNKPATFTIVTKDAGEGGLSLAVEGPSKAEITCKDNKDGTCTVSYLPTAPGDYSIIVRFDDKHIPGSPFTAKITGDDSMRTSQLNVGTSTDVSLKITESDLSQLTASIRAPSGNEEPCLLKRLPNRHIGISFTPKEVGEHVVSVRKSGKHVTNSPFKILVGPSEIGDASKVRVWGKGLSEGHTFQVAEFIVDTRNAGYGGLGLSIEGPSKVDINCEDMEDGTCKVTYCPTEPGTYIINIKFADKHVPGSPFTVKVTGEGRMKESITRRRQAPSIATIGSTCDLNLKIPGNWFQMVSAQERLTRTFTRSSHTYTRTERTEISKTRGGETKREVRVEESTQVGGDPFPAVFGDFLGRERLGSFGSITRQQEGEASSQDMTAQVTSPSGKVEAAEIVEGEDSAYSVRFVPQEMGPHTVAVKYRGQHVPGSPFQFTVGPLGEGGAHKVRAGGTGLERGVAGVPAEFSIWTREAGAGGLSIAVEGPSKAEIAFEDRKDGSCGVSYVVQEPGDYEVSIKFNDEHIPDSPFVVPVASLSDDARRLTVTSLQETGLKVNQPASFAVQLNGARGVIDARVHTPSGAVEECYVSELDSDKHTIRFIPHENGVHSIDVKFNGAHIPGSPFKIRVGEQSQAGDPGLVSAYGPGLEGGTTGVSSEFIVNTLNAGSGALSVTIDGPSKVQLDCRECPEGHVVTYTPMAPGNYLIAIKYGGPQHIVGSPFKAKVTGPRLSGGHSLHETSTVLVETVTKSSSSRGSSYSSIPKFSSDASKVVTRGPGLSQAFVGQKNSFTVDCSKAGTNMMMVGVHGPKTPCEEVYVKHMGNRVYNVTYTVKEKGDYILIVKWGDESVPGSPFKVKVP
UniProt P30550, sequence (whole entry, looked up): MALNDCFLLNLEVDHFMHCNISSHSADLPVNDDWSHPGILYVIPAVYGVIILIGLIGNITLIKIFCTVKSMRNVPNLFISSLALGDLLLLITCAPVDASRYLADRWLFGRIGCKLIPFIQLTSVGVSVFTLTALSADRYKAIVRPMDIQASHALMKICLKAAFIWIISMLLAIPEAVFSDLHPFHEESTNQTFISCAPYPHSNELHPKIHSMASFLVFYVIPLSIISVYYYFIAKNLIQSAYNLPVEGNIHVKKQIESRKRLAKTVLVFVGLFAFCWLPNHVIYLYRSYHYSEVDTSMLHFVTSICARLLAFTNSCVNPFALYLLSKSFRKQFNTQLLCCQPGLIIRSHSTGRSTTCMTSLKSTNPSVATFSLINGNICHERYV

O=c1ccc2ccccc2o1 — point of departure (HepaRG 3D spheroids; DNA structure; 24 h, high-content imaging): 653 µM
CC(C)C[C@H](NC(=O)[C@H](C)NC(=O)[C@@H](NC(=O)[C@H](CCCNC(=N)N)NC(=O)[C@H](CC(C)C)NC(=O)[C@H](Cc1c[nH]c2ccccc12)NC(=O)[C@@H]1CCCN1C(=O)[C@@H](N)CCCCN)C(C)C)C(=O)N[C@@H](CS)C(=O)N1CCC[C@H]1C(=O)NCC(=O)O — viability (A549; WST-1; 256 µM, 24 h): 96.4% and 88.7% and 100%
CCCCN(CCCNC(=O)c1cc(Nc2cccc(SC)c2)nc2ccccc12)Cc1ccccc1 — cytotoxicity efficacy (Vero-E6; CellTiter-Glo ATP; concentration not given, 72 h, second round 5-point; baseline: DMSO 0%, hyamine -100%, more negative, more toxic): -10.3%
CC(C)C[C@@H](NC(=O)[C@H](N)CCCCN)C(=O)N1CCC[C@@H]1C(=O)N[C@H](Cc1ccccc1)C(=O)N[C@H](Cc1ccccc1)C(N)=O — viability (NGF-differentiated PC-12 neurons; 160 µM, 24 h; baseline: untreated): 100%
COc1cc(Nc2ncc(F)c(Nc3ccc4c(n3)NC(=O)C(C)(C)O4)n2)cc(OC)c1OC — IC50 (GRPR (Homo sapiens, UniProt P30550)): > 10 µM
CCOc1ccc(CN2CCN(Cc3ccc4c(c3)c3ccccc3n4CC)CC2)cc1 — maximum response (Vero-E6; CellTiter-Glo ATP; 72 h, second round 5-point; baseline: DMSO 0%, hyamine -100%, more negative, more toxic): -23.6%
C[C@H]1CN(c2n[nH]c3nc(N[C@H]4CC[C@H](NS(=O)(=O)CCC(F)(F)F)CC4)ncc23)CCO1 — remaining binding (Filamin-C (FLNC, Homo sapiens, UniProt Q14315); Kinobeads competition, measured: FLNC; 20 µM, unit not given; baseline: vehicle): 1.15
CC(=O)c1c(C)c2cnc(Nc3ccc(C4CCN(CCS(C)(=O)=O)CC4)cn3)nc2n(C2CCCC2)c1=O — patients with TRAE ≥grade 3 (HR+/HER2- advanced breast cancer patients; oral, dose not given): 52.6%
C[C@@H](O)[C@@H](CO)NC(=O)[C@@H](CCCNC(=N)N)NC(=O)[C@@H]1CCCN1C(=O)[C@@H]1CSSC[C@H](NC(=O)[C@H](Cc2ccccc2)NC(=O)CN2CCN(CC(=O)O)CCN(CC(=O)O)CCN(CC(=O)O)CC2)C(=O)N[C@@H](Cc2ccc(O)cc2)C(=O)N[C@@H](Cc2ccccc2)C(=O)N[C@@H](CCC(N)=O)C(=O)N[C@@H](CC(N)=O)C(=O)N1 [gallium-68 labelled] — tissue uptake (Wistar rat, lungs; intravenous, 8 MBq, 30 min, group mean): 0.7 %ID/g
CN1CC[C@@H](c2c(O)cc(O)c3c(=O)cc(-c4ccc(C(F)(F)F)cc4Cl)oc23)[C@@H]1CO — patients with adverse event (measured: Pyrexia; AML; oral, 200 mg, intermittent dosing): 0%
COc1ccc(Nc2nn3c(-c4ccccc4)ccnc3c2C(=O)Nc2ccc(Cl)cc2)cc1 — viability (WI-38; MTT; serum-free medium; 500.00 µg/mL, 48 h): 61.7%
Cc1ccc2c(NC(C)c3ccccc3)nc(N3CCNCC3)nc2c1 (stereo not shown) — maximum response (Vero-E6; CellTiter-Glo ATP; 72 h, second round 5-point; baseline: DMSO 0%, hyamine -100%, more negative, more toxic): -9.46%
CC(C)C[C@@H](N)C(=O)N[C@H](CC(C)C)C(=O)N[C@H](Cc1ccccc1)C(=O)N[C@H](Cc1ccccc1)C(=O)N[C@H](C)C(N)=O — viability (NGF-differentiated PC-12 neurons; 40 µM, 24 h; baseline: untreated): 80.9%
COc1cc2c(Oc3ccc4[nH]c(C)cc4c3F)ccnc2cc1OCC1(N)CC1 — grade 3 ALP elevation (paediatric recurrent refractory sarcoma; 12 mg): 0%
CC[C@H](C)[C@H](NC(=O)[C@H](Cc1ccccc1)NC(=O)[C@H](CCC(=O)O)NC(=O)[C@H](CCCNC(=N)N)NC(=O)[C@H](C)NC(=O)[C@H](C)NC(=O)[C@H](CCC(N)=O)NC(=O)[C@H](CCC(=O)O)NC(=O)[C@H](CCC(=O)O)NC(=O)[C@H](CC(C)C)NC(=O)[C@H](Cc1ccc(O)cc1)NC(=O)[C@H](CO)NC(=O)[C@H](CO)NC(=O)[C@@H](NC(=O)[C@H](CC(=O)O)NC(=O)[C@H](CO)NC(=O)[C@@H](NC(=O)[C@H](Cc1ccccc1)NC(=O)[C@@H](NC(=O)CNC(=O)[C@H](CCC(=O)O)NC(=O)[C@H](C)NC(=O)CCc1c[nH]cn1)[C@@H](C)O)[C@@H](C)O)C(C)C)C(=O)N[C@@H](C)C(=O)N[C@@H](Cc1c[nH]c2ccccc12)C(=O)N[C@@H](CC(C)C)C(=O)N[C@H](C(=O)N[C@@H](CCCNC(=N)N)C(=O)NCC(=O)N[C@@H](CCCNC(=N)N)C(=O)N[C@@H](CCCCNC(=O)COCCOCCNC(=O)COCCOCCNC(=O)CC[C@H](NC(=O)CCCCCCCCCCCCCCCCC(=O)O)C(=O)O)C(=O)NCC(=O)NCC(=O)N[C@@H](CO)C(=O)N[C@@H](CCCCNc1c(NCCCCCN(O)C(=O)CCC(=O)NCCCCCN(O)C(=O)CCC(=O)NCCCCCN(O)C(C)=O)c(=O)c1=O)C(=O)O)C(C)C [zirconium-89 labelled] — tissue uptake (gamma counting; rat, colon content; intravenous, 3 nmol/kg, 24 h): 0.24 %ID/g
Oc1ccc(C(c2ccc(O)cc2)(C(F)(F)F)C(F)(F)F)cc1 — late apoptotic cells (HepG2 spheroids; annexin V-FITC/PI flow cytometry; 10 µM, 24 h): 10.9 ± 7.09%
CC(C)C[C@@H](NC(=O)[C@H](N)CCCCN)C(=O)N1CCC[C@@H]1C(=O)N[C@H](Cc1ccccc1)C(=O)N[C@H](Cc1ccccc1)C(=O)N[C@H](C)C(N)=O — viability (NGF-differentiated PC-12 neurons; 40 µM, 24 h; baseline: untreated): 95.8%
CCCCN(CCCNC(=O)c1cc(Nc2ccc(OC)c(OC)c2)nc2ccccc12)Cc1ccccc1 — cytotoxicity efficacy (Vero-E6; CellTiter-Glo ATP; concentration not given, 72 h, retest 8-point duplicates; baseline: DMSO 0%, hyamine -100%, more negative, more toxic): 0%
CC(C)C[C@@H](NC(=O)[C@H](N)CCCCN)C(=O)N[C@H](CC(C)C)C(=O)N[C@H](Cc1ccccc1)C(N)=O — viability (NGF-differentiated PC-12 neurons; 5 µM, 24 h; baseline: untreated): 100%
COc1ccnc(C(=O)N[C@H]2COC(=O)[C@H](Cc3ccccc3)[C@@H](OC(=O)C(C)C)[C@H](C)OC2=O)c1OCOC(=O)C(C)C — chromosomal aberration (rat lymphocytes; in vitro, outcome positive): positive
CC(C)C[C@@H](N)C(=O)N[C@H](CC(C)C)C(=O)N[C@H](Cc1ccccc1)C(=O)N[C@H](Cc1ccccc1)C(N)=O — viability (NGF-differentiated PC-12 neurons; 20 µM, 24 h; baseline: untreated): 57.4%
COc1ccccc1-c1cccc(CN2CCCC(C(=O)NCc3ccc(F)cc3)C2)c1 (stereo not shown) — maximum response (Vero-E6; CellTiter-Glo ATP; 72 h, first round 5-point; baseline: DMSO 0%, hyamine -100%, more negative, more toxic): -20.7%

Repeated from above:
CC(C)C[C@@H](NC(=O)[C@H](N)CCCCN)C(=O)N1CCC[C@@H]1C(=O)N[C@H](Cc1ccccc1)C(=O)N[C@H](Cc1ccccc1)C(N)=O — viability (NGF-differentiated PC-12 neurons; 160 µM, 24 h; baseline: untreated): 100%
Oc1ccc(C(c2ccc(O)cc2)(C(F)(F)F)C(F)(F)F)cc1 — late apoptotic cells (HepG2 spheroids; annexin V-FITC/PI flow cytometry; 10 µM, 24 h): 10.9 ± 7.09%
CCCCN(CCCNC(=O)c1cc(Nc2ccc(OC)c(OC)c2)nc2ccccc12)Cc1ccccc1 — cytotoxicity efficacy (Vero-E6; CellTiter-Glo ATP; concentration not given, 72 h, retest 8-point duplicates; baseline: DMSO 0%, hyamine -100%, more negative, more toxic): 0%
